Measured values gathered from unrelated publications.
A part holds a random share of what one study measured. Changes are numbered by the printed parent chain.

Study 1 — method: RNA Bind-n-Seq; form: RNA; sample: in vitro; concentration: 200 nM; setting: whole 134-nt RNA, ends assumed; added: 150 mM LiCl; relative to: input library; direction: higher = stronger binding; each molecule: 7-deaza-guanosine replaces G
Target: Ras GTPase-activating protein-binding protein 1, full length (G3BP1, Homo sapiens, UniProt Q13283)
Sequence of UniProt Q13283 (whole entry, looked up): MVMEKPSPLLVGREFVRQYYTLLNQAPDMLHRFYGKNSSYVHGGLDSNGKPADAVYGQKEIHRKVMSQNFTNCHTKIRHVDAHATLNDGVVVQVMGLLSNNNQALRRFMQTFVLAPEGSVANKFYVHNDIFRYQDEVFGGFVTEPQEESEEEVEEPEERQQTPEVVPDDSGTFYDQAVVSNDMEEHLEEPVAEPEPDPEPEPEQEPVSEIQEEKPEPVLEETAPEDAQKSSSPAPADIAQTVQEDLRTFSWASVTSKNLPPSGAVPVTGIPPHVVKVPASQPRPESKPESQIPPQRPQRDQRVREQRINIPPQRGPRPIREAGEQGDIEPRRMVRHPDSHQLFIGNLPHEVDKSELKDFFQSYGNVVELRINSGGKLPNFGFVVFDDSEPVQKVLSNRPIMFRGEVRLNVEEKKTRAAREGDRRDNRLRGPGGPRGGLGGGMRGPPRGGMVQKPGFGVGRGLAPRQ
All sequences stand within: GGGAGUUCUACAGUCCGACGAUC … UGGAAUUCUCGGGUGUCAAGG
| Oligonucleotide | log2 enrichment |
| --- | --- |
| UCCUGUGCUACACAUCGUAUGUACCGAAUCGGGGAAAAAAAGGGGAAAGGGGAAAGGGGAAAGUAUUAUGUUACGCCGUUCGGAUCUGCA | 0.269 |
| UGUGCUACACAUCGUAUGUACCGAAUCGGAAAAAAAGGGGAAAAAAAGGGGAAAAAAAGGGGAAAGUAUUAUGUUACGCCGUUCGGAUCU | 0.243 |
| UCAAGUCCUGUGCUACACAUCGUAUGUACCGAAUCGGUGGUUUUUGGUUUUUGGAAAGUAUUAUGUUACGCCGUUCGGAUCUGCACUUCC | -0.0945 |
| UCCUGUGCUACACAUCGUAUGUACCGAAUCAAAUUUUUAAAUUUUUAAACCCCCCCAAAAAAGUAUUAUGUUACGCCGUUCGGAUCUGCA | 1.47 |
| UGUGCUACACAUCGUAUGUACCGAAUCGGGGAAAAAAAGGGGAAAAAAAGGGAAAAAAAGGGGAAAGUAUUAUGUUACGCCGUUCGGAUC | 0.921 |
| ACCAUGCAGGUGGGCCUCUUUGGGAAGUGGGGCAAGGGGGGGAUAGGGAGGGGGGUAACACUUUGGGAACAGGUGGUCCCAGGUCGUUUC | -0.11 |
| AAGUCCUGUGCUACACAUCGUAUGUACCGAAUCGGGAAAGGGAAAGGGGAAAGGGGAAAGUAUUAUGUUACGCCGUUCGGAUCUGCACUU | 0.555 |
| UUGACCUAGAGGAUGAGACCAUUGAUGCCGAGGUCAUGAACUCUCUAGCAGUUACUAUGGAUGACUUCCGGGUAAGGACCACACCCGUGC | -1.17 |
| UCAAGUCCUGUGCUACACAUCGUAUGUACCGAAUCGGGUUUGGGUGGGUUUGGGAAAGUAUUAUGUUACGCCGUUCGGAUCUGCACUUCC | -0.344 |
| CAAGUCCUGUGCUACACAUCGUAUGUACCGAAUCGGAAAAAGGAAAAAAAGGUGGAAAGUAUUAUGUUACGCCGUUCGGAUCUGCACUUC | -1.1 |
| CUCAAGUCCUGUGCUACACAUCGUAUGUACCGAAUCGGGUUUGGGAGGGAGGGAAAGUAUUAUGUUACGCCGUUCGGAUCUGCACUUCCA | -0.397 |

Study 2 — method: DHFR PCA, deep sequencing; sample: yeast; added: (+)-ABA 58 µM; relative to: wild-type fitted maximum; direction: higher = stronger binding
Target: ABI1, truncated, D143A, DHFR fusion (Arabidopsis thaliana)
Setting: methotrexate growth selection, single substitutions
Parent: PYL1, truncated, DHFR fusion (Arabidopsis thaliana); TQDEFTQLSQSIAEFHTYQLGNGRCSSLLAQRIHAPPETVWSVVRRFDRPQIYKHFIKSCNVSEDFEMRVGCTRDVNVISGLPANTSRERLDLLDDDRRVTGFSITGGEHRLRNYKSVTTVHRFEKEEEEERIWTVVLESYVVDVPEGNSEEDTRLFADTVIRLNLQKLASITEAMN
| Substitution | relative binding score [%] |
| --- | --- |
| T86Q | 65.8 |
| I57R | 1.93 |
| T73S | 79.9 |
| F124L | 100 |
| L94M | 87.6 |
| T160V | 60.1 |
| L20Q | 91.9 |
| P83S | 51.3 |
| D75F | 88.4 |
| F157S | 7.29 |
| P37F | 7.72 |
| S27W | 9.24 |
| Q7S | 86.1 |
| V145M | 56.1 |
| F66M | 74.9 |
| C60I | 66.6 |
| E128S | 97.3 |
| T154E | -3 |
| S26P | -4.92 |
| Q167E | 84 |
| G148T | 67.2 |
| E130D | 95.5 |

Study 3 — target: JUN, bZIP domain (human); method: DHFR protein complementation; sample: yeast; relative to: wild-type JUN-FOS pair; direction: higher = stronger binding
Setting: single substitutions, most at no-binding floor
Parent: JUN, bZIP domain (human); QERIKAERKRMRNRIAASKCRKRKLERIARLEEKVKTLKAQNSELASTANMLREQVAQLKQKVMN
| Substitution | binding fitness |
| --- | --- |
| V35P | -1.24 natural log |
| L38R | -1.35 natural log |
| Q41W | -1.36 natural log |
| L31I | -1.27 natural log |
| L31N | -1.32 natural log |
| I28N | -1.26 natural log |
| L52I | -1.36 natural log |
| V35K | -1.31 natural log |
| N42P | -1.38 natural log |
| E32P | -1.38 natural log |
| L45S | -1.22 natural log |

Study 4 — method: protein binding microarray; form: double-stranded DNA, one strand shown; sample: in vitro; concentration: not given; relative to: not given; direction: higher = stronger binding
Target: Histone acetyltransferase KAT6A, winged helix 2, GST fusion (KAT6A, Homo sapiens, UniProt Q92794, residues 85-181)
Setting: 8-mer, flanks averaged, mean of 2 arrays, mostly near background
Residues (chain): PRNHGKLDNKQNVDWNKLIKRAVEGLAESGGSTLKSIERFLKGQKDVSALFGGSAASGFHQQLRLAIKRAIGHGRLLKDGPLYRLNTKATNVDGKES
| Oligonucleotide | E-score |
| --- | --- |
| GGCATCGA | 0.127 |
| ACAAGCGA | -0.00846 |
| CCTGCTAG | -0.082 |
| AACTTTTC | -0.105 |
| ACGCCCAT | 0.0928 |
| CGCCGGCG | 0.296 |
| CCGACGAA | 0.088 |
| GTCATAAA | 0.0182 |
| ACAGGGAC | 0.141 |
| CCGTTTCA | -0.218 |
| ATGGACAT | -0.0633 |
| ACCCTACG | -0.0651 |
| AGCTAGGC | -0.0159 |
| GGACATTA | -0.0574 |
| ATTGCGCA | 0.0757 |
| GCTAAACC | 0.176 |
| GAAGATAA | 0.0625 |

Study 5 — method: RNA Bind-n-Seq; form: RNA; sample: in vitro; concentration: 365 nM; relative to: no-protein control; direction: higher = stronger binding
Target: RNA binding protein fox-1 homolog 2, RRM domain, GST-SBP tag (RBFOX2, Homo sapiens, UniProt O43251-10, residues 100-194)
Setting: natural RNA segment, single round, ends assumed
All sequences stand within: GGGAGUUCUACAGUCCGACGAUC … UGGAAUUCUCGGGUGCCAA
Target sequence (chain): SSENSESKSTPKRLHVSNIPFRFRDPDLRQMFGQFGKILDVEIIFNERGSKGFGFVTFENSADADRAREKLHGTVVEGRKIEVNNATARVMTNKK
| Oligonucleotide | RBNS enrichment (R) |
| --- | --- |
| GUACAUAAUGAAAAUAUGCGUGUACAUAUAUUUUCCUUCUUGACACUACUUGAUCAUUAUAUCAAGUGUAUUUUUGUACAUAAUAUAUAUUGGUUAGAAAAAAAUAGAUU | 0.551 |
| CCUCUGAGGCAGUGGACAGGAAGACUUCUCAUCCUUGAAUUCUAGCUCCCAUUCCAAACUGUUAGUCCCCAACCUUGUGGUCACAUCAGAGGUCAACAGCAGAACAGAGG | 0.178 |
| AUUAAGCCUUCCAAGUCCCCAGCCAGGACCAUAGCUCCCCUGACCCUUUCACUGCCCCAGUGGUGUAAGUGGAGGGCCAGGGACCCUGCAAUUGUACCUGCUCCUCAUCC | 0.161 |
| UAUAUCCCUGAUUGGUUAUUUUUCCUUUCCUUCUGAGGUUCUCAUGUCAUUUUCUUCAUCGGAUGUGACUAAAAUUUUUCUGGUGUCUUCUGCCCUCUCUUUAAUUUUGC | 0.622 |
| AAGAGUAGGAUUAACACAGGGGAAGUCUUGAGAAGGAGUUUUGAUUCUUUUAUAUGUUUUUAAAAAAAAGCUUAAGAAACAUUGCUUUAAAAAGGAAGGAAAAAAAAUAC | 0.716 |
| GCAGCACUGCCAGGCUGUCGUCAGUUUCACCAUGUGGCCUCUGUGCCCCUCCUCCGUAGUCCUCUCCCUCCGUACAUGCUCCACAGAAAGAAGACCUCUGCUGCCACCUC | 0.695 |
| ACUUCUAAAAUCCUAGCAAUACUUAGAAUAACACAUCAGUGAGAUAAAUUUUACUCAAUUAUUUUACAAACCAAAUUGAGUUAUUCAAACACAAGCCAGUAUUCUGUGAA | 0.386 |
| AACUGUGCUUCCCUCAGCUGGUCGCCACCCCUGGGCCUUUCCAUCUCCUGUUUUGCAACCAGGAUGAGGACCCCUCCAUCUCCGUGGAUUACUGAGGGGGGCUCUUGCUU | 0.196 |
| AACUAGCGAAAACCACCAGUCCAGACCUUAUCCAUUCUACUCAUUCACAGUUUUAAAAACUGCCAUGCAGUGAUUUCGGCACUCUGGGGCCAGACAGCAGCUCCCUGUCA | 0.651 |
| AGCCAGAGUUCUGGGAGACAACGCUGGGUCUUAUUCUGGGACCAAAGUGAGAAUUCAAGCACAUUUCUUUCCUUUGCUAUGUAGGGAGGCUGCUGCCUUCCCAGAGCCUG | 0.609 |
| UGCAGUCUUCUCUCCACCCUGUACCCCGGAGUCCUGAUUGGAUGUCUGCAGAGGCAGAUGGGGCUCCCACCAUAUUUUCAGGCCGCAAGUGCAAUUCCUGAAGGCAUCAG | 0.447 |
| CGGGUCUCUUGCCUUGAGAUGGGGGGAGUCCUAGGAAGAAGAGUGGUCUGGUCCUGUUUCUGCAGACUGCUUGGCUCAGGGCUUCCUGAGAGACUUGAGAGGAACUGUCC | 0.855 |

Study 6 — target: CCND2, cyclin fold, Cln2 fusion (human); method: yeast growth competition, sequencing; sample: yeast; setting: weak parent motif; relative to: not given; direction: higher = stronger binding
Parent: WEE1 docking peptide (human); HKTFRKLRLFDTP
| Substitution | normalised enrichment score |
| --- | --- |
| HKTFRKLRPFDTP [L9P] | -0.145 |
| HKTFRKLRLFDAP [T12A] | -0.00147 |
| HKTFMKLRLFDTP [R5M] | 0.295 |
| HKTFRKLRLKDTP [F10K] | -0.0886 |
| HKAFRKLRLFDTP [T3A] | -0.111 |
| HKTFRKFRLFDTP [L7F] | 0.0245 |
| HKTFRKQRLFDTP [L7Q] | 0.492 |
| HKTFDKLRLFDTP [R5D] | 0.149 |
| HKTFRKLRLFRTP [D11R] | 0.0944 |
| HITFRKLRLFDTP [K2I] | 0.0733 |
| HKTFRKLRLLDTP [F10L] | -0.0308 |
| HKTFTKLRLFDTP [R5T] | 0.14 |
| HKTLRKLRLFDTP [F4L] | -0.0435 |
| HNTFRKLRLFDTP [K2N] | 0.161 |
| HKTFRKLRLFDNP [T12N] | 0.47 |
| HKTRRKLRLFDTP [F4R] | 0.439 |
| HKTGRKLRLFDTP [F4G] | -0.08 |
| HKTFRKLRLFDFP [T12F] | 0.53 |
| WKTFRKLRLFDTP [H1W] | 0.154 |
| HKTFRNLRLFDTP [K6N] | 0.382 |
| HKTFRKERLFDTP [L7E] | 0.17 |
| HKTSRKLRLFDTP [F4S] | 0.211 |
| HKTKRKLRLFDTP [F4K] | -0.0277 |
| HKTFRKLRLFDMP [T12M] | 0.0718 |
| HKYFRKLRLFDTP [T3Y] | -1.01 |

Further values, each from its own experiment
| Substance | target | assay | test system | conditions | how to read | measurement | value |
| --- | --- | --- | --- | --- | --- | --- | --- |
| PhoQ, residues 284 288 289 292 302 303 TNSAEL | PhoP, residues 12 14 15 18 19 IFFTR (Escherichia coli, UniProt P23836) | Sort-seq, measured: YFP reporter | E. coli | PhoQ-PhoP variant library, added: 10 µM Mg2+ | relative to: high Mg2+ state, higher = stronger signaling | fold induction | 20.7 |

Repeated from above (study 3):
| Substitution | binding fitness |
| --- | --- |
| L45S | -1.22 natural log |
| V35P | -1.24 natural log |
| V35K | -1.31 natural log |
| L31N | -1.32 natural log |
| L52I | -1.36 natural log |
| N42P | -1.38 natural log |
| I28N | -1.26 natural log |
| L38R | -1.35 natural log |
| Q41W | -1.36 natural log |
